# Assay results gathered from unrelated publications.
# A part holds a random share of what one study measured.

# Series 1
# Target: Interferon regulatory factor 7, full length, phosphomimetic (IRF7, Homo sapiens, UniProt Q92985, residues 1-503, S471D/S472D/S475D/S476D/S477D/S483D/S484D/S487D)
# Method: protein-binding microarray
# Form: double-stranded DNA, one strand shown
# Matrix: in vitro
# Concentration: 2200 nM top
# Notes: 60-bp whole probe
# Added: salmon DNA 0.4 mg/ml
# Relative to: random background probes
# Reading: higher = stronger binding
# Construct (chain): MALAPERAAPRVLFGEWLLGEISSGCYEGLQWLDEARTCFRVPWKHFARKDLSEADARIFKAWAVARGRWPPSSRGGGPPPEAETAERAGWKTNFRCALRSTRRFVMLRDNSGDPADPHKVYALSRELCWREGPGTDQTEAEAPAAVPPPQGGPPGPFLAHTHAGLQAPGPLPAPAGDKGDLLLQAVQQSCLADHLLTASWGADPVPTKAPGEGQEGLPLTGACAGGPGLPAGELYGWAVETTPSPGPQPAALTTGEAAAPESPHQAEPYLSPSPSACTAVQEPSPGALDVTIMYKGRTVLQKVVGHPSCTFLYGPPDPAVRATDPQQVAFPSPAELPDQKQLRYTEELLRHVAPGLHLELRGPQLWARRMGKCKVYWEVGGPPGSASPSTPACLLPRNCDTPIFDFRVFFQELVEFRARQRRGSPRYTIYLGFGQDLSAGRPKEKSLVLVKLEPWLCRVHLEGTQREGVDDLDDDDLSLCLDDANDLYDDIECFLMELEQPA
Oligonucleotide,fitted relative affinity [z-score]
GCCTAGCACAAAGATTTACAAACTGTGAGGGTGCTAGTCTTGATTCGCTTGACGCTGCTG,-0.894
GCCTAGCACTTAGGTCTCCGTTTCCTTTAGTGCTAGGTCTTGATTCGCTTGACGCTGCTG,1.92
GCCTAGCACTCACGTTTACATTTTCCACTGTGCTAGGTCTTGATTCGCTTGACGCTGCTG,2.82

# Series 2
# Target: Sal-like protein 4, full length isoform A (SALL4, Homo sapiens, UniProt Q9UJQ4, residues 1-1053)
# Chain of UniProt Q9UJQ4 (whole entry, looked up): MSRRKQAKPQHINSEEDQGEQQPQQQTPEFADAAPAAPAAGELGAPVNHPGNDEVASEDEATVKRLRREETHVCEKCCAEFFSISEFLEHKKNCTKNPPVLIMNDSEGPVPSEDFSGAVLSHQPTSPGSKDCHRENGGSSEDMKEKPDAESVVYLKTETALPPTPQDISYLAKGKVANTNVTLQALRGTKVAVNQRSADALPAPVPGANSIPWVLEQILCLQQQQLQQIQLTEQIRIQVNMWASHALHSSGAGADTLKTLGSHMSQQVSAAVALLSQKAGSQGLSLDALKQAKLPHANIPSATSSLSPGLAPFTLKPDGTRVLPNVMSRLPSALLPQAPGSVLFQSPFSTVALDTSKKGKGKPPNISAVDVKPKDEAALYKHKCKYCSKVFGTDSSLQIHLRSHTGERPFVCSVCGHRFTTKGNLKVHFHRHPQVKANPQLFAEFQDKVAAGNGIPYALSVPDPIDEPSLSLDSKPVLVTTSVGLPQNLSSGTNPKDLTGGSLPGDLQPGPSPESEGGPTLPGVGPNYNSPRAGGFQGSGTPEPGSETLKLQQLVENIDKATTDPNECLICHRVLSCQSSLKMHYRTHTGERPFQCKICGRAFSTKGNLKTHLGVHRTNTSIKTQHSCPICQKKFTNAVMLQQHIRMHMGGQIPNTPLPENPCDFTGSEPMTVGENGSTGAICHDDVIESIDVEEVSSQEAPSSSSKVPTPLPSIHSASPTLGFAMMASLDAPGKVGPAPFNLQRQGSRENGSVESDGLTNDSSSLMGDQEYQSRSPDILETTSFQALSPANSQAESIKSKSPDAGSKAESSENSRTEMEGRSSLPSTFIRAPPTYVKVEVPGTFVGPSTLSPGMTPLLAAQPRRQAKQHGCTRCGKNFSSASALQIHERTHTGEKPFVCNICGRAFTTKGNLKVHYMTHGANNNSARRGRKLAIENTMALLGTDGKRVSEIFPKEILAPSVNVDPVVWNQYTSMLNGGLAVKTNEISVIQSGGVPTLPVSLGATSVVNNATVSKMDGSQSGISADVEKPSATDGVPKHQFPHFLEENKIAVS
# Method: universal PBM
# Form: double-stranded DNA, one strand shown
# Matrix: in vitro
# Concentration: 600 nM
# Notes: 8-mer, flanks averaged, mean of replicates
# Reading: higher = stronger binding
Oligonucleotide,E-score
CGATGGAA,-0.0866
CGACCCCG,-0.4
GTAGGTAA,0.116
AGGTGAAG,-0.0231

# Series 3
# Target: Histone acetyltransferase KAT6A, both winged helices, GST fusion (KAT6A, Homo sapiens, UniProt Q92794, residues 1-181)
# Method: protein binding microarray
# Form: double-stranded DNA, one strand shown
# Matrix: in vitro
# Concentration: not given
# Notes: 8-mer, flanks averaged, mean of 2 arrays, mostly near background
# Relative to: not given
# Reading: higher = stronger binding
# Residues (chain): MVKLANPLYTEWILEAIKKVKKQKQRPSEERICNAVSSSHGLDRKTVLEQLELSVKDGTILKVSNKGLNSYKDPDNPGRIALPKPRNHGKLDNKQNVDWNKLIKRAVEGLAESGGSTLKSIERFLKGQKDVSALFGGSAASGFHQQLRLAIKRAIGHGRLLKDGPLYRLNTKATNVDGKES
Oligonucleotide,E-score
AGCTTCTA,-0.0861
TCTGGAAA,-0.117
TCCGGCGA,0.224
GCGGTAGA,0.228
CGACACCA,0.0429

# Other studies, line by line
Substance,target,test,test system,setting,scale,measurement,result
"PhoQ, residues 284 288 289 292 302 303 SNSSNI","PhoP, residues 12 14 15 18 19 NFCKL (Escherichia coli, UniProt P23836)","Sort-seq, measured: YFP reporter",E. coli,"PhoQ-PhoP variant library, added: 10 µM Mg2+","relative to: high Mg2+ state, higher = stronger signaling",fold induction,1.91

# Some of these lines once more (other studies, line by line):
Substance,target,test,test system,setting,scale,measurement,result
"PhoQ, residues 284 288 289 292 302 303 SNSSNI","PhoP, residues 12 14 15 18 19 NFCKL (Escherichia coli, UniProt P23836)","Sort-seq, measured: YFP reporter",E. coli,"PhoQ-PhoP variant library, added: 10 µM Mg2+","relative to: high Mg2+ state, higher = stronger signaling",fold induction,1.91
